Measured values collected from several papers.
Each line is one published result; not all experiments were run side by side. ± marks the error that the study gave. Converted amounts (≈) assume the structure as drawn.
Chain of UniProt P05771 (whole entry, looked up): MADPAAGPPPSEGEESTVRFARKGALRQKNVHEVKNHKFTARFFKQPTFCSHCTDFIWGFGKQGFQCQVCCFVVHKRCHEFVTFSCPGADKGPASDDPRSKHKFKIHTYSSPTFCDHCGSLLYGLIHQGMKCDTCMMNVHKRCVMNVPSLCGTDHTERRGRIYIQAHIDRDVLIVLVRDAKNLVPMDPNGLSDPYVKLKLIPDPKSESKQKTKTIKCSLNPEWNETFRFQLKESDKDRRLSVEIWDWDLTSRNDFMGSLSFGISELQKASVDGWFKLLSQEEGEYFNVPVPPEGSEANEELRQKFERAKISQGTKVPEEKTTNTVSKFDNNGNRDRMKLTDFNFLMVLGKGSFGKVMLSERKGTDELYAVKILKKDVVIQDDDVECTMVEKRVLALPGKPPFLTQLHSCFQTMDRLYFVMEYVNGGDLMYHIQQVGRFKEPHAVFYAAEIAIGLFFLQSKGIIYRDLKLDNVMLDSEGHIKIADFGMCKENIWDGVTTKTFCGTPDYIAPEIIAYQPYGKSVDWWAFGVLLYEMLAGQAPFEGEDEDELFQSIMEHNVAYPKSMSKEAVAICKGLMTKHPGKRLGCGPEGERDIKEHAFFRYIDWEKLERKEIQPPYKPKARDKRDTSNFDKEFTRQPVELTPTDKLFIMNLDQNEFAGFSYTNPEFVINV
Chain of UniProt P21709 (whole entry, looked up): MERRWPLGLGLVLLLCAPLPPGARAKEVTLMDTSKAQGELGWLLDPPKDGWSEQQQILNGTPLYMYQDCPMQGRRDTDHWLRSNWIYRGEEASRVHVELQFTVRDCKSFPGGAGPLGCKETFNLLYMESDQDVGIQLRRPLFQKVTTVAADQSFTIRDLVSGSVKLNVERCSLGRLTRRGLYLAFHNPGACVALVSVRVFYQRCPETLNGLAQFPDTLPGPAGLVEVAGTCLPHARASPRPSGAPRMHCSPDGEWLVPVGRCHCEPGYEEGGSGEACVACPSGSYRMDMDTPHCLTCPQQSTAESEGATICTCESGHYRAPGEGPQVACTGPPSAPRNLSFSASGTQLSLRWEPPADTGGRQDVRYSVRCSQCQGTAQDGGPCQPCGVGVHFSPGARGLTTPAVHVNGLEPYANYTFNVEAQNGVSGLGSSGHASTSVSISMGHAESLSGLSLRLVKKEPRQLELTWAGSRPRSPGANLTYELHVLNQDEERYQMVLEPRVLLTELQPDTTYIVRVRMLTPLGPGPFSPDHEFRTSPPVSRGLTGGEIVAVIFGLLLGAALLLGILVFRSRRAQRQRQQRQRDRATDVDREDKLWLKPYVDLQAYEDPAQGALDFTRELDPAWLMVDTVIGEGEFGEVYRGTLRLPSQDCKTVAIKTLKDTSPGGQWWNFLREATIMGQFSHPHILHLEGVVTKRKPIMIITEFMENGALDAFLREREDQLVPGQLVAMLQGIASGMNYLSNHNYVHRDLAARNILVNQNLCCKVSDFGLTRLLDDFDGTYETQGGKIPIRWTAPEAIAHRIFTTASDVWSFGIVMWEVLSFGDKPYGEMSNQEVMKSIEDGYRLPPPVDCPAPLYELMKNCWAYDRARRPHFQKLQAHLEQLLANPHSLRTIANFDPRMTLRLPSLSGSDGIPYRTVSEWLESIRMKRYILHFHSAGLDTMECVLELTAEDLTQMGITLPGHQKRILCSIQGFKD

SMILES | tested on | assay | test system | setting | how to read | measurement | result
C=C/C=C/C[C@@H](C)[C@@H](O)[C@H]1C(=O)N[C@@H](CC)C(=O)N(C)CC(=O)N(C)[C@@H](CC(C)C)C(=O)N[C@@H](C(C)C)C(=O)N(C)[C@@H](CC(C)C)C(=O)N[C@@H](C)C(=O)N[C@H](C)C(=O)N(C)[C@@H](CC(C)C)C(=O)N(C)[C@@H](CC(C)C)C(=O)N(C)[C@@H](C(C)C)C(=O)N1C |  |  | Wistar Kyoto rat, male, plasma | ip, 0.5 mg/kg/day, day 28, at sacrifice |  | plasma Mg2+ | 0.86 ± 0.04 mmol/L
Cc1nc2cccc(OCC(C)(C)C(=O)NC(C)C)c2c(N)c1C(=O)[O-].[Na+] | Escherichia coli | reverse mutation, plate incorporation | WP2 uvrA | 0.80 mg/plate, without S9 |  | revertant colonies | 29 ± 4 colonies/plate
N=C(N)NCCC[C@@H]1NC(=O)[C@H](CCCCNC(=O)CCC(NC(=S)Nc2ccc(CC3CN(CC(=O)O)CCN(CC(=O)O)CCN(CC(=O)O)CCN3CC(=O)O)cc2)C(=O)NCCCC[C@@H]2NC(=O)[C@@H](Cc3ccc(O)cc3)NC(=O)[C@H](CC(=O)O)NC(=O)CNC(=O)[C@H](CCCNC(=N)N)NC2=O)NC(=O)[C@@H](Cc2ccc(O)cc2)NC(=O)[C@H](CC(=O)O)NC(=O)CNC1=O (stereo partly shown) [scandium-44 labelled] |  | PET imaging ROI | female athymic nude mice, U-87 MG xenograft, muscle | intravenous, 2 h |  | tissue uptake | 0.35 ± 0.17 %ID/g
CC(C)(C)C(=O)OCOP(=O)(OCOC(=O)C(C)(C)C)C1CCCN(O)C1=O (stereo not shown) | A549 |  |  |  |  | TGI | > 100 µM
N#[11C]c1ccc(-c2csc(NN=C3CCCC3)n2)cc1 |  |  | C57BL/6 mice, male, lung | intravenous, 3 MBq, 30 min |  | radioactivity uptake | 3.58 ± 0.4 %ID/g
CN1Cc2cc(Cl)ccc2-n2c(nnc2C2CCN(c3cccc([18F])n3)CC2)C1 |  | PET two-tissue compartment model | rhesus monkey, amygdala | intravenous, dose not given, 70 min scan, baseline scan |  | total volume of distribution | 1.08 ± 0.37 mL/cm3
CCCC[C@H]1C(=O)N(C)[C@@H](CCCC)C(=O)N[C@@H](CCCNC(=O)CN2CCN(CC(=O)O)CCN(CC(=O)O)CCN(CC(=O)O)CC2)C(=O)N[C@H](C(=O)NCC(N)=O)CSCC(=O)N[C@@H](Cc2ccc(O)cc2)C(=O)N(C)[C@@H](C)C(=O)N[C@@H](CC(N)=O)C(=O)N2CCC[C@H]2C(=O)N[C@@H](Cc2c[nH]cn2)C(=O)N[C@@H](CC(C)C)C(=O)N(C)CC(=O)N[C@@H](Cc2c[nH]c3ccccc23)C(=O)N[C@@H](CO)C(=O)N[C@@H](Cc2c[nH]c3ccccc23)C(=O)N1C [gallium-68 labelled] |  |  | NOD/SCID mice, CHO-hPD-L1 xenograft, lung | 60 min, atezolizumab 10 mg/kg pretreatment |  | tissue uptake | 7.58 ± 0.99 %ID/g
O=C1NC(=O)c2c1c1cc(F)c[n+]3c1c1c2c2cc(O)ccc2[n]1[Ru-4]312([N]=C=S)[S+]3CC[S+]1CC[S+]2CC3 (stereo not shown) | Ephrin type-A receptor 1 (EPHA1, Homo sapiens, UniProt P21709) | enzyme activity |  | 100 nM, human enzyme, with: 10 µM ATP | relative to: untreated | remaining activity | 107%
C=Cc1c(C)c2cc3nc(c(CC(=O)O)c4[nH]c(cc5nc(cc1[nH]2)C(C)=C5CC)c(C)c4C(=O)O)[C@@H](CCC(=O)NCCCC[C@H](NC(C)=O)C(=O)N[C@@H](Cc1ccccc1)C(=O)N[C@@H](Cc1ccccc1)C(=O)N[C@H](C(=O)N[C@@H](CC(C)C)C(=O)N[C@@H](CCCCN)C(=O)N[C@@H](CO)C(=O)NCC(=O)N[C@@H](CCC(N)=O)C(=O)N[C@@H](Cc1ccc(O)cc1)C(=O)N[C@@H](C)C(=O)N[C@@H](CO)C(=O)N[C@@H](Cc1ccc(O)cc1)C(=O)N[C@@H](Cc1c[nH]cn1)C(=O)N[C@@H](CS)C(=O)N[C@@H](Cc1c[nH]c2ccccc12)C(=O)N[C@@H](CS)C(=O)N[C@@H](Cc1c[nH]c2ccccc12)C(=O)N[C@@H](CCCNC(=N)N)C(=O)N[C@@H](CC(=O)O)C(=O)N1CCC[C@H]1C(=O)NCC(=O)N[C@@H](CCCNC(=N)N)C(=O)N[C@@H](CO)C(=O)NCC(=O)NCC(=O)N[C@@H](CO)C(=O)N[C@@H](CCCCN)C(N)=O)C(C)C)[C@@H]3C |  |  | mouse, blood | 0.5 h |  | blood concentration | 153 µg/mL
CN1C(=O)[C@@H]2NC(=O)[C@@H]3NC(=O)[C@@H](c4ccc(O)cc4)NC(=O)[C@H](NC(=O)C(NCc4cccc(O)c4O)c4ccc(O)cc4)Cc4c[nH]c5cc(ccc45)-c4cc3cc(c4O)Oc3ccc(cc3)C[C@H]1C(=O)N[C@@H](C(=O)O)c1ccc(O)c(c1)Oc1ccc2cc1 (stereo partly shown) |  |  | saline | 24 h, 25 °C |  | thermodynamic solubility | 16.4 µg/mL (≈ 13.2 µM)
COc1ccccc1-c1n[nH]c2nc(NC3CCN(C(=O)Cc4ccc(F)cc4F)CC3)ncc12 |  | bead binding, competition bead pull-down, item: LMJF.36.0990 | Leishmania donovani axenic amastigote extract | 10 µM | relative to: vehicle | relative abundance | 1.38
CC(=O)N1c2ccc(-c3ccc(C(=O)NCCN4CC(N5CCN(CC(=O)N[C@H](C(=O)N6C[C@H](O)C[C@H]6C(=O)NCc6ccc(-c7scnc7C)cc6)C(C)(C)C)CC5)C4)cc3)cc2[C@H](Nc2ccc(Cl)cc2)C[C@@H]1C |  |  | Sf9 cell culture medium |  |  | kinetic solubility | < 1.56 µM
CC(C)[C@@H]1NC(=O)CNC(=O)[C@H](CC(N)=O)NC(=O)[C@H](CCCNC(=N)N)NC(=O)[C@H](Cc2ccc(O)cc2)NC(=O)[C@H](C(C)C)NC(=O)[C@@H](NC(=O)[C@@H](NC(=O)[C@H](CC(N)=O)NC(=O)[C@H](Cc2c[nH]c3ccccc23)NC(=O)[C@H](C)NC(=O)[C@H](Cc2ccccc2)NC(=O)CNC(=O)[C@H](CCCCN)NC(=O)[C@H](Cc2ccccc2)NC(=O)[C@H](Cc2ccccc2)NC(=O)[C@H](CCCCN)NC(=O)OCC2c3ccccc3-c3ccccc32)C(C)C)CSSC[C@@H](C(=O)N[C@@H](Cc2c[nH]cn2)C(=O)N[C@@H](CCCNC(=N)N)C(=O)N[C@@H](CCCNC(=N)N)C(=O)N[C@@H](C)C(=O)N[C@@H](CC(N)=O)C(N)=O)NC(=O)[C@H](C(C)C)NC(=O)[C@H](CCCNC(=N)N)NC1=O |  |  | ICR mice, serum | intraperitoneal, 10 mg/kg, day 5 |  | albumin | 33.4 ± 0.92 g/L
O=C1NC2(CC2)COc2ncc(F)cc2[C@H]2COCCN2c2ccn3ncc1c3n2 |  |  | Sprague-Dawley rat, female, serum | oral, 10 mg/kg/day, 4 weeks daily, end of recovery period |  | creatine kinase activity | 322 ± 86 U/L
C=Cc1c(C)c2cc3nc(c(CC(=O)[O-])c4[n-]c(cc5nc(cc1[n-]2)C(C)=C5CC)c(C)c4C(=O)[O-])C(CCC(=O)[O-])C3C.[Cu+2].[Na+].[Na+].[Na+] (stereo not shown) |  |  | Wistar rat, female | oral, 1000 mg/kg daily, 28 days |  | serum albumin | 1 ± 0.19 g/dL
Cc1ccccc1-c1ccc(-c2nc(-c3ccc(CN(C)CCCC(=O)O)c([18F])c3)no2)cc1C(F)(F)F |  |  | rat, liver | 30 min |  | tracer uptake | 2.56 %ID/g
CN[C@H](CC(C)C)C(=O)N[C@H]1C(=O)N[C@@H](CC(N)=O)C(=O)N[C@H]2C(=N)N[C@H]3C(=O)N[C@H](C(=O)N[C@H](C(=O)NCCCNC(=N)N)c4cc(O)cc(O)c4-c4cc3ccc4O)[C@H](O)c3ccc(c(Cl)c3)Oc3cc2cc(c3O[C@@H]2O[C@H](CO)[C@@H](O)[C@H](O)[C@H]2O[C@H]2C[C@](C)(NCc3ccc(-c4ccc(Cl)cc4)cc3)[C@H](O)[C@H](C)O2)Oc2ccc(cc2Cl)[C@H]1O |  |  | mouse | intravenous, 25 mg/kg |  | clearance | 0.55 mL/min/kg
CS(C)(=O)=Nc1ccc(-c2ccc(-c3nc4cc(O[C@@H]5CO[C@H]6[C@@H]5OC[C@H]6O)[nH]c4cc3F)cc2)cc1 | Protein kinase C beta type, isoform beta-I (PRKCB, Homo sapiens, UniProt P05771) | kinase activity |  | 10 µM |  | inhibition | -3%
CCCCCCCCCCCCCCCC(=O)N[C@@H](CCCNC(=N)N)C(=O)N[C@@H](Cc1c[nH]c2ccccc12)C(=O)N[C@@H](CCCCN)C(=O)N[C@H](C(=O)N[C@@H](Cc1ccccc1)C(=O)N[C@@H](CCCCN)C(=O)N[C@@H](CCCCN)C(=O)N[C@H](C(=O)N[C@@H](CCC(=O)O)C(=O)N[C@@H](CCCCN)C(=O)N[C@H](C(=O)NCC(=O)N[C@@H](CCC(N)=O)C(=O)N[C@@H](CC(N)=O)C(=O)N[C@H](C(=O)N[C@@H](CCCNC(=N)N)C(=O)N[C@@H](CC(=O)O)C(=O)NCC(=O)N[C@H](C(=O)N[C@H](C(=O)N[C@@H](CCCCN)C(=O)N[C@@H](C)C(=O)NCC(=O)N1CCC[C@H]1C(=O)N[C@@H](C)C(=O)N[C@H](C(=O)N[C@@H](C)C(=O)N[C@H](C(=O)N[C@H](C(=O)NCC(=O)N[C@@H](CCC(N)=O)C(=O)N[C@@H](C)C(=O)N[C@@H](C)C(=O)N[C@H](C(=O)N[C@H](C(N)=O)[C@@H](C)CC)[C@@H](C)O)C(C)C)C(C)C)C(C)C)C(C)C)[C@@H](C)CC)[C@@H](C)CC)C(C)C)[C@@H](C)CC)[C@@H](C)CC |  |  | mouse erythrocytes | 50 µM, 1 h, 37 °C |  | hemolysis | ~60%

Excerpt of the above:
SMILES | tested on | assay | test system | setting | how to read | measurement | result
O=C1NC2(CC2)COc2ncc(F)cc2[C@H]2COCCN2c2ccn3ncc1c3n2 |  |  | Sprague-Dawley rat, female, serum | oral, 10 mg/kg/day, 4 weeks daily, end of recovery period |  | creatine kinase activity | 322 ± 86 U/L
